{"data": "Published values from different studies", "PTGER4": "Prostaglandin E2 receptor EP4 subtype (PTGER4, Homo sapiens, UniProt P35408)", "BCHE": "Cholinesterase (BCHE, Homo sapiens, UniProt P06276)", "FGFR1": "Fibroblast growth factor receptor 1 (FGFR1, Homo sapiens, UniProt P11362)", "note": "Lines come from different studies, so protocols differ. Numbers after ± are the reported error.", "sequence of UniProt P06276 (whole entry, looked up)": "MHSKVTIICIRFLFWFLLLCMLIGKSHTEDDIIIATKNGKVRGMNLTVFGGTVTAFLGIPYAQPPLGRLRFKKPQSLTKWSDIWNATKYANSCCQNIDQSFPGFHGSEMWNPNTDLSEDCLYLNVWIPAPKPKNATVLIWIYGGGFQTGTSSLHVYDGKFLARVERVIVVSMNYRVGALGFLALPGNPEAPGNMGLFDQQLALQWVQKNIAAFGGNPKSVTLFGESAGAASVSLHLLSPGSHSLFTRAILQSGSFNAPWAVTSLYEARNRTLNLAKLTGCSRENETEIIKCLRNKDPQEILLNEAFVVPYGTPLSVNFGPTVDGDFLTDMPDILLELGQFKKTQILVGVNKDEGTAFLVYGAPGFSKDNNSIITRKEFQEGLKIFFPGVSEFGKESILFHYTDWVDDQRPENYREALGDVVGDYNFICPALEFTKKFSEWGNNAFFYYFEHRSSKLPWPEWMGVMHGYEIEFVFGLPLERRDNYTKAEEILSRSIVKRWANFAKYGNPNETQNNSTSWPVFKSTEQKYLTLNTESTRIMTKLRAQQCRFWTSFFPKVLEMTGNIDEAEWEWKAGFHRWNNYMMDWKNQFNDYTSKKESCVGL", "sequence of UniProt P11362 (whole entry, looked up)": "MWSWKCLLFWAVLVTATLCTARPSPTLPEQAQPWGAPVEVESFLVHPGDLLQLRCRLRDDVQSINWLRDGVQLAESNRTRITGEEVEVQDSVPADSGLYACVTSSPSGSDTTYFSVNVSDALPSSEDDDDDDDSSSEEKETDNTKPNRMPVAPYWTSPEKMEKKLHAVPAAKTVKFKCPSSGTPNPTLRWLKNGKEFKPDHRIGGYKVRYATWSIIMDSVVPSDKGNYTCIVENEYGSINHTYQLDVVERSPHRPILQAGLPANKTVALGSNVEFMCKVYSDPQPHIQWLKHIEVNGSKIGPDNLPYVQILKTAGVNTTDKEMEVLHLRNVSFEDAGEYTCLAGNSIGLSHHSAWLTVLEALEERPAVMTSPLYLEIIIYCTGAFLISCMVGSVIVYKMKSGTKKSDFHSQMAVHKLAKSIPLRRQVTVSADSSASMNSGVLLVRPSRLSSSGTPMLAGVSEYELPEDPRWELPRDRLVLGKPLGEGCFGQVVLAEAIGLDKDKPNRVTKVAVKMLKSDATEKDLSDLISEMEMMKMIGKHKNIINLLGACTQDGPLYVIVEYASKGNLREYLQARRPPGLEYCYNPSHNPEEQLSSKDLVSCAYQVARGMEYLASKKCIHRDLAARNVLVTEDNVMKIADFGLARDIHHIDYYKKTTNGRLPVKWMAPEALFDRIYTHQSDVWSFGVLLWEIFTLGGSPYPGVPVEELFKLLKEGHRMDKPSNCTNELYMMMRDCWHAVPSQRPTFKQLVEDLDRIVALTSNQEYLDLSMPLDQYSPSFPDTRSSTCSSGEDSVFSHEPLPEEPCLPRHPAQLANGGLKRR", "sequence of UniProt P35408 (whole entry, looked up)": "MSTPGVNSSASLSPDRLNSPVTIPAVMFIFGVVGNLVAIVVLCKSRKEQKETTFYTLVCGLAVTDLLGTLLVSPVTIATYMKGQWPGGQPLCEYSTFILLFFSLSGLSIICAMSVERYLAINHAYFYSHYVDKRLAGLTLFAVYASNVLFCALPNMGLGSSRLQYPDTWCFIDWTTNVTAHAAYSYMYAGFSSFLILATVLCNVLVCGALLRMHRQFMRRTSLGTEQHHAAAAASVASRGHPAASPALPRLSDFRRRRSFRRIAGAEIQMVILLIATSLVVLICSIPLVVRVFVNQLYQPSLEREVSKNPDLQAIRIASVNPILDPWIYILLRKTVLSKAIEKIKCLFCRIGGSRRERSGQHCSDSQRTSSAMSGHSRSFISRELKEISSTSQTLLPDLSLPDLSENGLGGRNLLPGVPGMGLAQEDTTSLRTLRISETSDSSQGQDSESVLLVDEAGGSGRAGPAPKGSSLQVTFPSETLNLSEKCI", "sequence of UniProt O95372 (whole entry, looked up)": "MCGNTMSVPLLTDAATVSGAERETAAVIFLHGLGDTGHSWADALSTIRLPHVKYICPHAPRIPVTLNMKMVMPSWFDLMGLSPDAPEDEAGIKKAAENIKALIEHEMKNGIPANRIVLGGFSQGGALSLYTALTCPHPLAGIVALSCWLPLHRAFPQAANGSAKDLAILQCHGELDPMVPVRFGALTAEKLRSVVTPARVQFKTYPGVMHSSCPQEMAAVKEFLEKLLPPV", "sequence of UniProt P28336 (whole entry, looked up)": "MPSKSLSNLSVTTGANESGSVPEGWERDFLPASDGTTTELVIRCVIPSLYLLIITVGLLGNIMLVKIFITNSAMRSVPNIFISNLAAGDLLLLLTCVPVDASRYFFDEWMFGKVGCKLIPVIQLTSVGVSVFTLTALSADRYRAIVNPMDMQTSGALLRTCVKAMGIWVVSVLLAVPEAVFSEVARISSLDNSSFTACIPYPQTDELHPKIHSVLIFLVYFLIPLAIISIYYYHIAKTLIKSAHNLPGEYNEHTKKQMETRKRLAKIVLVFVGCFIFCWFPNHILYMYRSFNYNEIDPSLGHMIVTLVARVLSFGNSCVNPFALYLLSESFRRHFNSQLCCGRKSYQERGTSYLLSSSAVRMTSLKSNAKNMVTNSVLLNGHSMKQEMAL", "sequence of UniProt P14416 (whole entry, looked up)": "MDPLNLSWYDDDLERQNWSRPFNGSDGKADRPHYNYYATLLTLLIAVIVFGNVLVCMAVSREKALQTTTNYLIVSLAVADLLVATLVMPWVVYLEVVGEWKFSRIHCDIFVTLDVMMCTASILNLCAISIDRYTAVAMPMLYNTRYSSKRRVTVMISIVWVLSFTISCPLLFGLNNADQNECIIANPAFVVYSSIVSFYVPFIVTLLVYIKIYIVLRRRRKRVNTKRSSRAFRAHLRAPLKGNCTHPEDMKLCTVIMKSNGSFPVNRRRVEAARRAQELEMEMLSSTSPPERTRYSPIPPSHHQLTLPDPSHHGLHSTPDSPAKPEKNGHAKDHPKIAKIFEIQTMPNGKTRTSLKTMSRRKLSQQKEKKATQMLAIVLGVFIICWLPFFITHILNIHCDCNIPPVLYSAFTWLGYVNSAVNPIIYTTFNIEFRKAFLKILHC", "sequence of UniProt P46089 (whole entry, looked up)": "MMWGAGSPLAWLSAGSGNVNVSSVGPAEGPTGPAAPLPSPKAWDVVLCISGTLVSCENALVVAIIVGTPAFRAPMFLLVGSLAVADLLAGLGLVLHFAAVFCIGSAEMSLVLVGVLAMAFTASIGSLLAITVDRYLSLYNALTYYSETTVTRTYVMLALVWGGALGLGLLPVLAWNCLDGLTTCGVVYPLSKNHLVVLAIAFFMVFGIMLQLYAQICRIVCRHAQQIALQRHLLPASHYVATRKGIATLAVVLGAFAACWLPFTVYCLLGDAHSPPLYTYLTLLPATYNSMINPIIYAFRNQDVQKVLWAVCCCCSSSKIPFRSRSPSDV", "sequence of UniProt Q16891 (whole entry, looked up)": "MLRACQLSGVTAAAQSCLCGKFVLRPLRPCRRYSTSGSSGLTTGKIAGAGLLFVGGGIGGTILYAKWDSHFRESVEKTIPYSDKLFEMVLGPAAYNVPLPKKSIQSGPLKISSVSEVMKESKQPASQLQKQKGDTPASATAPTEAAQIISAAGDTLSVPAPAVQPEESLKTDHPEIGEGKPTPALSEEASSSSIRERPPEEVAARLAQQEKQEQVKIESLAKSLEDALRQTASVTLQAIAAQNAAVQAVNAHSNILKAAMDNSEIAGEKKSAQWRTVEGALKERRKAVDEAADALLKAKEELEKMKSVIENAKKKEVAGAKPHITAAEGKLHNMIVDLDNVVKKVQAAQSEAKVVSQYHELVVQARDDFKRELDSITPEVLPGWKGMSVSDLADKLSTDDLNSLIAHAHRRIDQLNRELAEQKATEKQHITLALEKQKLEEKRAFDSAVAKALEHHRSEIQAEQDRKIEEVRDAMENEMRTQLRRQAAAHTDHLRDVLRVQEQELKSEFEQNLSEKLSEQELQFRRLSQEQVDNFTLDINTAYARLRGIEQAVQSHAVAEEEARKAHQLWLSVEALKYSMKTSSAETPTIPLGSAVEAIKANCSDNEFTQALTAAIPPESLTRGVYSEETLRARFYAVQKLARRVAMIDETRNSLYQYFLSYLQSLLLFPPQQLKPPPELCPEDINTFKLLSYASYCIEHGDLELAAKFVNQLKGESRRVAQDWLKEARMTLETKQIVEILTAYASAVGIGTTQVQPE"}
{"Compound": "CC[C@H](C)[C@@H]1NC(=O)[C@@H]2CCCN2C(=O)[C@H](CC(C)C)NC(=O)[C@H](CC(C)C)NC(=O)CNC(=O)[C@@H](NC(=O)[C@@H](NC(=O)[C@H](CC(=O)O)NC(=O)CNC(=O)[C@@H](NC(=O)[C@H](C)NC(=O)CNC(=O)[C@H](CCCCN)NC(=O)[C@H](CC(C)C)NC(=O)[C@H](CC(C)C)NC(=O)[C@H](CCCCN)NC(=O)CNC(=O)[C@@H](NC(=O)[C@@H](N)CC(C)C)C(C)C)C(C)C)C(C)C)CSSC[C@@H](C(=O)O)NC1=O", "test": "RNA-seq, measured: Tnfrsf14", "test system": "mouse, traumatic brain injury model, frontal cortex and hippocampus", "conditions": "dose not given", "how to read": "reference: TBI alone", "endpoint": "log2 fold change", "value": -1.36}
{"Compound": "COC1=CC(=O)c2c(O)c3c(c(O)c2C1=O)O[C@]1(Oc2c(cc4cc(C)oc(=O)c4c2O)[C@@H](O)[C@@H]1O)[C@@H]3O", "tested on": "Staphylococcus aureus", "test": "RNA-Seq, measured: hrtA", "test system": "MRSA ATCC 433000", "conditions": "MIC, 12 h", "how to read": "reference: untreated", "endpoint": "log2 fold change", "value": -2.76}
{"Compound": "CC[C@H](C)[C@H](NC(=O)CNC(=O)[C@@H](N)CCCCN)C(=O)N[C@@H](CC(C)C)C(=O)N[C@@H](CCCCN)C(=O)N[C@@H](CCCNC(=N)N)C(=O)N[C@@H](CCC(=O)O)C(=O)N[C@@H](CCCCN)C(=O)N[C@@H](CCCNC(=N)N)C(=O)N[C@@H](CC(C)C)C(=O)N[C@@H](CCCNC(=N)N)C(=O)N[C@@H](CCCNC(=N)N)C(=O)N[C@@H](CCCCN)C(=O)N[C@@H](CC(N)=O)C(=O)N[C@H](C(=O)N[C@@H](Cc1c[nH]cn1)C(=O)N[C@@H](Cc1c[nH]c2ccccc12)C(=O)N1CCC[C@H]1C(=O)N[C@@H](CCC(=O)O)C(=O)N[C@@H](CCC(=O)O)C(=O)NCC(=O)N[C@@H](CCCCN)C(=O)N[C@@H](CC(C)C)C(=O)N[C@@H](CCCNC(=N)N)C(=O)N[C@@H](CCC(=O)O)C(=O)N[C@@H](Cc1ccc(O)cc1)C(=O)N[C@@H](Cc1ccccc1)C(=O)N[C@@H](Cc1ccc(O)cc1)C(=O)N[C@@H](Cc1ccccc1)C(=O)N[C@@H](CCC(=O)O)C(=O)N[C@@H](CC(C)C)C(=O)N[C@@H](CC(=O)O)C(=O)N[C@@H](CCC(=O)O)C(=O)N[C@@H](C)C(=O)N[C@@H](CCC(=O)O)C(=O)N[C@@H](CCCNC(=N)N)C(=O)N[C@H](C(=O)N[C@@H](CC(N)=O)C(=O)N[C@H](C(=O)O)C(C)C)C(C)C)C(C)C", "tested on": "HeLa and HEK-293T cells", "test": "phosphatase bead binding, competitive inhibitor, PIB pulldown iBAQ LC-MS/MS, measured: PPP6R2", "conditions": "concentration not given", "how to read": "reference: untreated control", "endpoint": "log2 fold change", "value": 0.07}
{"Compound": "COc1cc(Nc2ncc(F)c(Nc3ccc4c(n3)NC(=O)C(C)(C)O4)n2)cc(OC)c1OC", "tested on": "PTGER4", "endpoint": "IC50", "value": "> 10000 nM"}
{"Compound": "CO[C@H]1C[C@@H]2CC[C@@H](C)[C@@](O)(O2)C(=O)C(=O)N2CCCC[C@H]2C(=O)O[C@H]([C@H](C)C[C@@H]2CC[C@@H](OC(=O)NCCOCCOCCOCCOCCOCCOCCOCCOCCC(=O)N3CCc4cc(Cn5nc(-c6ccc7oc(N)nc7c6)c6c(N)ncnc65)ccc4C3)[C@H](OC)C2)C[C@@H](O)[C@H](C)/C=C(\\C)[C@@H](O)[C@@H](OC)C(=O)[C@H](C)C[C@H](C)/C=C/C=C/C=C/1C", "test system": "patients with advanced solid tumours", "conditions": "intravenous, 10 mg weekly, any grade", "endpoint": "decreased appetite incidence", "value": "12.5%"}
{"Compound": "O=c1nc(-c2ccccn2)sc2ccccc12", "tested on": "BCHE", "test": "inhibitor", "endpoint": "efficacy", "value": "-94.6 ± 2.01%"}
{"Compound": "O=C(Nc1cnccc1Cl)N1CCN(Cc2ccc3c(c2)OC(F)(F)O3)CC1", "tested on": "FGFR1", "test": "kinase activity, inhibitor", "conditions": "50 µM, human, with: poly(Glu:Tyr) substrate", "endpoint": "inhibition", "value": "-4%"}
{"Compound": "C[C@@H](O)[C@@H](CO)NC(=O)[C@@H](CCCNC(=N)N)NC(=O)[C@@H]1CCCN1C(=O)[C@@H]1CSSC[C@H](NC(=O)[C@H](Cc2ccccc2)NC(=O)CN2CCN(CC(=O)O)CCN(CC(=O)O)CCN(CC(=O)O)CC2)C(=O)N[C@@H](Cc2ccc(O)cc2)C(=O)N[C@@H](Cc2ccccc2)C(=O)N[C@@H](CCC(N)=O)C(=O)N[C@@H](CC(N)=O)C(=O)N1 [gallium-68 labelled]", "test system": "Wistar rat, brain", "conditions": "intravenous, 8 MBq, 60 min, group mean", "endpoint": "tissue uptake", "value": "0.05 %ID/g"}
{"Compound": "CN(C(=O)n1cnc(-c2ccc[n+]([O-])c2)c1)C1CCCCC1", "tested on": "FGFR1", "test": "kinase activity, inhibitor", "conditions": "50 µM, human, with: poly(Glu:Tyr) substrate", "endpoint": "inhibition", "value": "-2%"}
{"Compound": "CC[C@]1(O)C[C@H]2CN(CCc3c([nH]c4ccccc34)[C@@](C(=O)OC)(c3cc4c(cc3OC)N(C=O)[C@H]3[C@@](O)(C(=O)OC)[C@H](OC(C)=O)[C@]5(CC)C=CCN6CC[C@]43[C@@H]65)C2)C1", "tested on": "Plasmodium falciparum", "test system": "HB3", "endpoint": "IC50", "value": "1580 nM"}
{"Compound": "Oc1ccc2c3c1O[C@H]1[C@@H](O)CC[C@@]4(O)[C@@H](C2)N(CC2CCC2)CC[C@]314", "tested on": "GPR3 (Homo sapiens, UniProt P46089)", "test": "β-arrestin recruitment, TANGO luminescence", "conditions": "concentration not given", "how to read": "reference: basal luminescence", "endpoint": "log2 fold change", "value": -0.114}
{"Compound": "CN1CCN(c2cc(-c3ccncc3)c(-c3ccc4ccccc4c3)nn2)CC1", "tested on": "NMBR (Homo sapiens, UniProt P28336)", "test": "agonist, FLIPR", "conditions": "12.5 µM", "endpoint": "activation", "value": "-0.2%"}
{"Compound": "CCC(C)CNCC(=O)N1CCc2sccc2C1COc1cccc(C)c1 (stereo not shown)", "tested on": "BCHE", "conditions": "concentration not given, Triton", "endpoint": "efficacy", "value": "-87.8 ± 8.02%"}
{"Compound": "O=C(Nc1cccnn1)N1CCC(=Cc2cccc(Oc3ccc(C(F)(F)F)cn3)c2)CC1", "tested on": "PTGER4", "test": "binding, measured: EP4", "conditions": "50 µM, human, with: [3H]prostaglandin E2", "endpoint": "inhibition", "value": "86%"}
{"Compound": "CC[C@H](C)[C@H](NC(=O)[C@H](Cc1ccccc1)NC(=O)[C@H](CCC(=O)O)NC(=O)[C@H](CCCNC(=N)N)NC(=O)[C@H](C)NC(=O)[C@H](C)NC(=O)[C@H](CCC(N)=O)NC(=O)[C@H](CCC(=O)O)NC(=O)[C@H](CCC(=O)O)NC(=O)[C@H](CC(C)C)NC(=O)[C@H](Cc1ccc(O)cc1)NC(=O)[C@H](CO)NC(=O)[C@H](CO)NC(=O)[C@@H](NC(=O)[C@H](CC(=O)O)NC(=O)[C@H](CO)NC(=O)[C@@H](NC(=O)[C@H](Cc1ccccc1)NC(=O)[C@@H](NC(=O)CNC(=O)[C@H](CCC(=O)O)NC(=O)[C@H](C)NC(=O)CCc1c[nH]cn1)[C@@H](C)O)[C@@H](C)O)C(C)C)C(=O)N[C@@H](C)C(=O)N[C@@H](Cc1c[nH]c2ccccc12)C(=O)N[C@@H](CC(C)C)C(=O)N[C@H](C(=O)N[C@@H](CCCNC(=N)N)C(=O)NCC(=O)N[C@@H](CCCNC(=N)N)C(=O)N[C@@H](CCCCNC(=O)COCCOCCNC(=O)COCCOCCNC(=O)CC[C@H](NC(=O)CCCCCCCCCCCCCCCCC(=O)O)C(=O)O)C(=O)NCC(=O)NCC(=O)N[C@@H](CO)C(=O)N[C@@H](CCCCNc1c(NCCCCCN(O)C(=O)CCC(=O)NCCCCCN(O)C(=O)CCC(=O)NCCCCCN(O)C(C)=O)c(=O)c1=O)C(=O)O)C(C)C [zirconium-89 labelled]", "test": "gamma counting", "test system": "rat, colon content", "conditions": "intravenous, 3 nmol/kg, 4 h", "endpoint": "tissue uptake", "value": "0.01 %ID/g"}
{"Compound": "Br.O=C(CN1C2=NCCN2c2ccccc21)c1ccc(-c2ccccc2)cc1", "tested on": "BCHE", "conditions": "concentration not given, Triton", "endpoint": "efficacy", "value": "-106 ± 4.1%"}
{"Compound": "O=C(c1ccc(Cl)cc1)N1CCN2C(=O)N(OC(=O)N3CCOc4ccccc43)C(=O)C2C1 (stereo not shown)", "tested on": "Acyl-protein thioesterase 2 (Homo sapiens, UniProt O95372)", "test": "enzyme activity, inhibitor, MS-based ABPP", "test system": "SW-620 in situ", "conditions": "10 µM, 2 h, 37 °C", "how to read": "reference: compound over DMSO, lower = stronger inhibition", "endpoint": "median ratio", "value": 1.18}
{"Compound": "C[C@@H]1CC[C@H]2[C@@H](C)C(=O)O[C@@H]3O[C@@]4(C)CC[C@@H]1[C@]32OO4", "tested on": "Plasmodium falciparum", "test system": "HB3", "endpoint": "IC50", "value": "25 nM"}
{"Compound": "CN[C@@]1(c2ccccc2Cl)CCCCC1=O", "tested on": "DRD2 (Homo sapiens, UniProt P14416)", "test": "radioligand binding, antagonist, radioligand displacement", "conditions": "30 µM, long isoform", "endpoint": "inhibition", "value": "2%"}
{"Compound": "CC(C)n1cnc2c(NCCc3ccc(O)cc3)nc(-c3csc4ccccc34)nc21", "tested on": "BCHE", "conditions": "concentration not given, Triton", "endpoint": "efficacy", "value": "-53 ± 9.35%"}
{"Compound": "COc1ccc(N2C(=O)N(c3c(C)cccc3Cl)Cc3cnc(Nc4ccc(C5CCN(C)CC5)cc4OC)nc32)nc1", "tested on": "PKN1 (Homo sapiens, UniProt Q16512)", "test": "kinase activity", "conditions": "0.5 µM", "endpoint": "inhibition", "value": "0.605%"}
{"Compound": "CCCCCCC[N+](CC)(CC)CCCCc1ccc(Cl)cc1.Cc1ccc(S(=O)(=O)[O-])cc1", "tested on": "BCHE", "conditions": "concentration not given, Triton", "endpoint": "efficacy", "value": "-67.9 ± 1.83%"}
{"Compound": "C[C@H]1CN(c2n[nH]c3nc(N[C@H]4CC[C@H](NS(=O)(=O)CCC(F)(F)F)CC4)ncc23)CCO1", "tested on": "MICOS complex subunit MIC60 (Homo sapiens, UniProt Q16891)", "test": "Kinobeads competition, measured: IMMT", "conditions": "0.032 µM, unit not given", "how to read": "reference: vehicle", "endpoint": "remaining binding", "value": 1.04}
{"Compound": "C[N+](C)(C)CCCCCCCCCC[N+](C)(C)C.[Br-].[Br-]", "tested on": "BCHE", "test": "enzyme activity, inhibitor", "conditions": "Triton", "endpoint": "IC50", "value": "inactive"}
{"Compound": "Cc1sc2c(c1C)C(c1ccc(Cl)cc1)=N[C@@H](CC(=O)OC(C)(C)C)c1nnc(C)n1-2", "tested on": "W12E, differentiated", "test": "CUT&RUN-qPCR, measured: HPV origin", "conditions": "concentration not given", "endpoint": "BARD1 binding", "value": "increased"}
{"note": "For quick reference, copied from above:"}
{"Compound": "Br.O=C(CN1C2=NCCN2c2ccccc21)c1ccc(-c2ccccc2)cc1", "tested on": "BCHE", "conditions": "concentration not given, Triton", "endpoint": "efficacy", "value": "-106 ± 4.1%"}
